Experimental data collected from several papers.
Numbered parts are unrelated; each lists some results of a single study. Substitutions count along the parent as printed.

Sample 1 — target: CCNB3, cyclin fold, Cln2 fusion (human); technique: yeast growth competition, sequencing; matrix: yeast; setting: weak parent motif; relative to: not given; reading: higher = stronger binding; endpoint: normalised enrichment score
Parent: CABLES2 docking peptide (human); ICAKRSLCAAFSV; partner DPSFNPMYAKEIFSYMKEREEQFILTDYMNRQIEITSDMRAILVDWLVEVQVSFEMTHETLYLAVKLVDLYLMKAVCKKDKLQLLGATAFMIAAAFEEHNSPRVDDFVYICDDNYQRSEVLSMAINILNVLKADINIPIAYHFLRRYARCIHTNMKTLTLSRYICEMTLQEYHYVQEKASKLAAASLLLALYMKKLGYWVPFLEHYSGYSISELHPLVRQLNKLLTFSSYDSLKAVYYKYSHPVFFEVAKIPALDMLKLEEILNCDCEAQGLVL
L7A: -0.301
S12A: 0.528
V13A: 0.405
C8A: 0.448
K4A: -0.0746

Sample 2 — technique: RNA Bind-n-Seq; form: RNA; matrix: in vitro; tested at: 365 nM; relative to: no-protein control; reading: higher = stronger binding; endpoint: RBNS enrichment (R)
Target: RNA binding protein fox-1 homolog 2, RRM domain, GST-SBP tag (RBFOX2, Homo sapiens, UniProt O43251-10, residues 100-194)
Setting: natural RNA segment, single round, ends assumed
All sequences stand within: GGGAGUUCUACAGUCCGACGAUC … UGGAAUUCUCGGGUGCCAA
Target sequence (chain): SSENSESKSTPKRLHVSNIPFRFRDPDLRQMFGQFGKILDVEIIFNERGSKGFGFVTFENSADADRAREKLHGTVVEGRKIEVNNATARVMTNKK
UCAUAUUGUUUUUUCUAACAUGGCUUCAUUAAACGUUUAAGUAUUUUAAAACUAUGUAAUAUUUGGACCAGAUGUUGUGAAUAACAGUAGAGAAAGCUAUUUUAUUCUGU: 0.446
CUCAGUGCACUUUGAACCUGGAAAACAAUCCCAACAGGCCCGUGGGACCAUGACUUAGGGAGGUGGGACCCACCCACCCCCAUCCAGGAACCGUGACGUCCAAGGAACCA: 0.319
GCUGCUGACGUUCUGAGCCAGGCAAGUGCACGGGGCUGUUGGAUGGCCAGUGGGGAGCUGGAAAAAACAAGGCAGCCUUUAGGAAGGCCAUGGUGCAUGUGUGUGCAUGC: 2.11
CGCCCCUGCUGCUGGCCUCGGGCAUGGCCCGCGACUGGCCCGACGCCCGCGGUAUCUGGCACAAUGACAAUAAGACCUUCCUGGUGUGGGUCAACGAGGAGGACCACCUG: 0.246
AUGAGUAACCUAAGGGAAGUGCUGAAUGGUGUUGGCAGGGGUAUUAAACGUGCAUUUUUACUCAACUACCUCAGGUAUUCAGUAAUACAAUGAAAAGCAAAAUUGUUCCU: 0.386
CCUGUAAUCCCAGCUACUCGGGAGGCUGAGGUGGGAGAAUAGCUUGAACCUGGGAGGCAGAGGUUGUGGUGAGCCAAGAUCACGCCACUGCACUCCAGCCUGGGUGACAG: 0.51
AAGAGACAGCAGCUCCUGGUCAACCACCUUAGUUAGAUAAUCUUUUUUGAAAGCUUCCUAGCUGGAGGUAUGAUCAGAAAACCAAUUUACUGAAAAACUGCACAAGAAGG: 0.436
GAAAGCUGAAUGCAUUUUACCAGUGAGGCUCUAGAUAUGAAACUUAGGGAUCCAUAGAUAAAUAAGCUACUAACAAACUGAUAACAGUGGUGUUCCAUCUCUCUAUCAUG: 0.799
GGAGACGCUGGAAGUUAAGCAAUACUUUAAUACUGUAAUAUGUUUGUUUUCUUUUUCUUUCUUUUUUUUCUACCAAAAAAAAGUAAGUAAACUAAAACACAAAAACAUAU: 0.601
UGAGAAUUGAAGACUUAGCCAGUCAGAUAAGUUUUUUCAUGAACCCGUUGUGGAAAUUAUUGGAAUUAACUGAGCCAAAGUGAUUAUGCAUUCUUCAUCUAUUUUAGUUA: 0.742
CAGGUCUUGGCCCUAGAGGAUUGAGAUGUUUUUCUAAAUCUUAGAACUAUUUUUGGAUAAAUUAUAUAUUUUCCUUCCUAGUAGAAGUGUUACUGCCUGUAACUAGCUCA: 0.478
AGCGUCUAUGAGUCUGUAUUCCUGCUCAGUCAUCAACUUGUGUUCCUAUUGAACAUUUGAUCAGAAUGAACUUGCCAAUCAAAACAAAAACAGGACAAUCAAUUUAAGAC: 0.324

Sample 3 — technique: protein-binding microarray; form: double-stranded DNA, one strand shown; matrix: in vitro; tested at: 250 nM; setting: 60-bp whole probe; with: salmon DNA 0.4 mg/ml; relative to: random background probes; reading: higher = stronger binding; endpoint: log fluorescence; all sequences stand within: GCCTAGCAC … GTCTTGATTCGCTTGACGCTGCTG
Target: Interferon regulatory factor 5, full length, phosphomimetic (IRF5, Homo sapiens, UniProt Q13568-2, residues 1-514, K96S/S451D/S453D/S456D/S462D)
TTAGGTTTCGACTATCGGTTCGTGCTA: 9.15 z-score
AACGATATCAGTATCGAGACGTGCTAG: 4.03 z-score
TTAGAATTCAGACTGGATTAGTGCTAG: -0.147 z-score
TTAGGTTCCCTTTTTCTTTAGTGCTAG: 0.662 z-score
TAAGGTTTCCTTCTCCTTTAGTGCTAG: 0.848 z-score
TTAGGTGTCCTACTGCTTTAGTGCTAG: -0.207 z-score
GACGTTTTCCTTTTCCTGACGTGCTAG: 1.47 z-score
TTAAGACTGGGGTTTCGGTTAGTGCTA: 7.37 z-score
TCACTTTTTAAGATCTGACTGTGCTAG: 0.674 z-score
TTAGGAGTGGGACTGGGTTAGTGCTAG: -0.468 z-score
TTAGATCTCAGTATCGGTTAGTGCTAG: 7.35 z-score
TTAGGTATCGGGACTGGGTTCGTGCTA: 1.63 z-score
TTAGAACGGGGGTATCGATTAGTGCTA: 3.66 z-score
GAGGGACTGCTACTGCTGACGTGCTAG: -0.629 z-score
TTAAAAAAAAAAAACTGTAACGTGCTA: 0.692 z-score
TCACTTCTAGACTTCTCACTGTGCTAG: 0.375 z-score
TCATATGTGACCTTTTTAACTGTGCTA: 0.309 z-score
TCAGTTTGCCTCCTTCAGACTGTGCTA: 0.0549 z-score
TTAGGTTTCCTAGTGCTTTAGTGCTAG: 0.377 z-score
TTAGGATTGGGGTATCGGTTAGTGCTA: 2.62 z-score
CAGCGCGCAGCTGCCAGAACGTGCTAG: -0.901 z-score
GACGGACTGGCTTTCGGGACGTGCTAG: 2.72 z-score
CTCTCATTCCAATTCTTTTTGTGCTAG: 0.897 z-score

Sample 4 — technique: universal PBM; form: double-stranded DNA, one strand shown; matrix: in vitro; tested at: 600 nM; reading: higher = stronger binding; endpoint: E-score
Target: Sal-like protein 4, full length isoform A (SALL4, Homo sapiens, UniProt Q9UJQ4, residues 1-1053)
Chain of UniProt Q9UJQ4 (whole entry, looked up): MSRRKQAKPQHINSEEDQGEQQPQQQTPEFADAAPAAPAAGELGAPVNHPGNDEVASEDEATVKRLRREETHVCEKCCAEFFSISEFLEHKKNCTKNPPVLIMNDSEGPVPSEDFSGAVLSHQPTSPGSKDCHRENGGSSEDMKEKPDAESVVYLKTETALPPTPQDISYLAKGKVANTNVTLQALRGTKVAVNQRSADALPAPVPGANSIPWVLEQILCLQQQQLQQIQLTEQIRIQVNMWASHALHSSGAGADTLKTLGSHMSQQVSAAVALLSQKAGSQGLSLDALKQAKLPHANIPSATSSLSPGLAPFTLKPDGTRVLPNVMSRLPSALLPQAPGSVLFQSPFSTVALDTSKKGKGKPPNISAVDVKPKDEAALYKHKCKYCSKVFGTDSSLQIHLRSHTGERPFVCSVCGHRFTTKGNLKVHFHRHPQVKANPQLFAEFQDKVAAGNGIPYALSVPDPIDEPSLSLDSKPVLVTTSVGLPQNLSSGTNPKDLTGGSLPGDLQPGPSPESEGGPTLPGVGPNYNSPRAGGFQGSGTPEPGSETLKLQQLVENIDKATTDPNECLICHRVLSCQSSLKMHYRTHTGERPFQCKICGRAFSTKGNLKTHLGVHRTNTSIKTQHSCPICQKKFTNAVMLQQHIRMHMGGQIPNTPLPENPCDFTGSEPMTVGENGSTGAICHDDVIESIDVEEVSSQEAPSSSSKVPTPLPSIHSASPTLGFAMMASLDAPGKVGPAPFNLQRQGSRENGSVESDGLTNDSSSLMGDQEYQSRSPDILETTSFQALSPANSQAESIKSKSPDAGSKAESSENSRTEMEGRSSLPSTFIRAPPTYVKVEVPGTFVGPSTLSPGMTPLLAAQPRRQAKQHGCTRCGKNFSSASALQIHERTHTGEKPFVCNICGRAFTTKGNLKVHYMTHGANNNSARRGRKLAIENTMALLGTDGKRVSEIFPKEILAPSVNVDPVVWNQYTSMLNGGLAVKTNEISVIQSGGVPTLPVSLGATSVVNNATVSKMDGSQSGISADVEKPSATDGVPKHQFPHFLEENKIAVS
Setting: 8-mer, flanks averaged, mean of replicates
ACTGAGAT: 0.107
AGAGTATA: 0.192
CAAATTTG: 0.0779
ATGTCCTA: 0.026
ACGTACCG: -0.125
GTGTCGAA: -0.0993
ACAGAAAA: 0.141
CAAGAACA: 0.0842
GTTTAATA: 0.37
ATCCGAAG: 0.0243
AGTATCGC: 0.0344
GAATTCAC: -0.061
AAGTCTAT: 0.219
CGATTAGC: -0.0917
GAGGGGCC: -0.412
ACCATCAT: 0.149
AGGCCATC: -0.0583
ACCCGGCG: -0.383
ACTGCGCT: 0.0457
CAACTTGG: -0.14
TCCTCGCA: -0.128
CGTAGACA: -0.0681
GGCAACTA: 0.0115
CACAAATC: 0.0046
AACGTTGA: 0.0878

Sample 5 — technique: DHFR PCA, deep sequencing; matrix: yeast; with: (+)-ABA 2500 µM; relative to: wild-type fitted maximum; reading: higher = stronger binding; endpoint: relative binding score
Target: ABI1, truncated, D143A, DHFR fusion (Arabidopsis thaliana)
Setting: methotrexate growth selection, single substitutions
Parent: PYL1, truncated, DHFR fusion (Arabidopsis thaliana); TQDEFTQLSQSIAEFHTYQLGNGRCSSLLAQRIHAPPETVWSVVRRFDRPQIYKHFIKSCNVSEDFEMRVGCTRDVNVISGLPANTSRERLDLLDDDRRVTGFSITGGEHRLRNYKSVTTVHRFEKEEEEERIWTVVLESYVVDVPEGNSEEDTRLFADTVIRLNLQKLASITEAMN
G148A: 91.3%
N22T: 101%
F103V: 74.3%
L164G: 93.1%
E152S: 98.1%
V70G: 84.9%
A84S: 85.7%
G148I: 81%
R74A: -0.0421%
N177T: 96.7%
E129A: 107%
I105S: 98.2%
T160K: 94.1%
R32A: 87.6%
Q51T: 93.6%
L138Q: 85.6%
G21S: 96.5%
E127Y: 99.8%
T101P: -13.1%
L166G: 36.3%

Sample 6 — target: JUND, bZIP domain (human); technique: DHFR protein complementation; matrix: yeast; relative to: wild-type JUN-FOS pair; reading: higher = stronger binding; endpoint: binding fitness
Setting: single substitutions, most at no-binding floor
Parent: JUN, bZIP domain (human); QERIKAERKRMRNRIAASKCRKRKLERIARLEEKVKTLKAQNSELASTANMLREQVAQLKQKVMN
Q55Y: -1.34 natural log
V35T: -1.37 natural log
V35P: -1.44 natural log
L31G: -1.41 natural log
L38K: -1.4 natural log
Q41W: -1.31 natural log
R53F: -1.29 natural log
N42T: -1.34 natural log
Q55S: -1.29 natural log
L38G: -1.42 natural log
V35R: -1.4 natural log

Excerpt of the above (sample 3):
TCACTTTTTAAGATCTGACTGTGCTAG: 0.674 z-score
TTAGGAGTGGGACTGGGTTAGTGCTAG: -0.468 z-score
TTAGATCTCAGTATCGGTTAGTGCTAG: 7.35 z-score
TTAGGTATCGGGACTGGGTTCGTGCTA: 1.63 z-score
TTAGAACGGGGGTATCGATTAGTGCTA: 3.66 z-score
GAGGGACTGCTACTGCTGACGTGCTAG: -0.629 z-score
